# Published values from different studies.
# A part holds a random share of what one study measured.

# Study 1
# Target: RING finger protein unkempt homolog, zinc fingers 1-6, GST-SBP tag (UNK, Homo sapiens, UniProt Q9C0B0, residues 30-357)
# Sequence of UniProt Q9C0B0 (30-357, looked up): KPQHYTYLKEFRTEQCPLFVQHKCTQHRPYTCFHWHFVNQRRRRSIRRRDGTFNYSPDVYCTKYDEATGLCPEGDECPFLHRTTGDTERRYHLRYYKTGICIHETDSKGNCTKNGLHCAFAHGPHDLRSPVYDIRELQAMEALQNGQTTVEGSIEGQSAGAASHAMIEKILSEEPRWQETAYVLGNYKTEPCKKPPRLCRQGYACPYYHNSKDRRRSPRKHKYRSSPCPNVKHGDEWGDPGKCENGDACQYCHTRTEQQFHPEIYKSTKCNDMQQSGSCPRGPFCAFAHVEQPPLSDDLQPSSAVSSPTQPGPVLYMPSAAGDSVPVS
# Method: RNA Bind-n-Seq
# Molecule type: RNA
# Sample: in vitro
# Concentration: not given
# Notes: RNA with constant flanks, human and mouse sites, ends assumed
# Relative to: input RNA pool
# Reading: higher = stronger binding
# Constant ends, left off below: GGGAGUUCUACAGUCCGACGAUC … CAACAGAGGAUUGAGCAUCA
Oligonucleotide,bound/input enrichment [ratio]
ACAGUAGGAAAGGCCAAGGGCAAAUUGUGGCUCUUUGGAAAGAAGCCAAAGGGCCCAGCACUAGAAGAUUUCAGUCAUCUGCCACCAGAACAGAGACGUAAAAAACUACAGCAGCGCAUU,0.673
UUGGCAGGAAAUAUCCAAGAUCCAGAUGAGCCCAUUUUAGAAUUCAGCUUAGCUUGCAGUGAGCUGCACACUCCAUCGCUAGAUCGAAAACCAAAUAGUUUUGUGGCUGUGAGUGUCACC,1.35
GAUGAGGUGUUGGUAAAUCACUUCUGUGAAGAAUUUGGAAAGAAAUACAAGCUAGACAUAAAAUCUAAAAUUCGUGCUUUAUUACGACUGUCUCAAGAGUGUGAGAAACUCAAGAAAUUG,0.542
AAUUUAUUAACUGUUGUAUAAAAGCAGAGAAAAAGGACACACCAUGUCCGAUGAAAUCUUCAGCACAACUUUGGCGUACACCAAGAGUCCAAAGGCUACCAAGAGAACUUCCUUUCAGGA,0.195
GAUGCUAAGAUGCACCCCACUCCAGCAUCACAUCCAAAGAAACAAGGUGUGGGCGUGUUUCCCUCUCAGGACCCUGCUCAGUCCAGAAUGCCUCCUUGGAUUUACAAUGAGAGUUUGGUU,0.187
GAGUAACUCACCUCCAUGGGCUGACCAAAGGCUUUUCUAAUUUUUGUUACUGAUGAGAUGAAACCUAUUUGUAAGGAGAUCUUCCCCAGGAGCAUUUCUGUUGCCUUCUUGACAUCAAUG,0.188
GUGGCAGUAGAUUCUACAGGCACGUACAUGGCCACCUCUGGCCUAGACCACCAGCUGAAGAUCUUUGACUUGCGAGGGACGUACCAGCCUCUGAGCACUCGGACCCUGCCCCAUGGAGCA,0.126
AAUGCUGUUCGCCAAAAUGGACAGCUGGUCAGAAAUGAUUCUCUGUAUGGCAUUUCAAAUAUAGAUACAACCAUUGAAGGAACGUCAGAUGACCUGACUGUUGUAGAUGCAGCUUCACUA,0.276
UCUCUUGGGAUGUAAUACAGAUAACACUUUUUAUUUGAUUUGGGGAAGGUAUGCGAGACCCCUUCUUUCUUUUGUUUUCCUCAGAGUUUGCUGGAGGUCUUGUGCUGUGUUGUUUCCAAC,0.229
CUCAUCUUUGACCUGGGAGGUGGCACUUUUGAUGUGUCAAUCCUCACUAUUGAGGAUGGAAUCUUUGAGGUCAAGUCUACAGCUGGAGACACCCACUUGGGUGGAGAAGAUUUUGACAAC,0.188
GGAGCUGCCCCUCCCGUCACAUCAGAACCUUGGAAGCUGCUGCUGCUGCUUACAGAAUUAUAUUUUUUUCUUUUGAAGAGUUUUAAGAAGUUGUAACUUUUUGUGUCUUGUCAUGUCAGA,0.435

# Study 2
# Target: Interferon regulatory factor 5, full length, phosphomimetic (IRF5, Homo sapiens, UniProt Q13568-2, residues 1-514, S451D/S453D/S456D/S462D)
# Method: protein-binding microarray
# Molecule type: double-stranded DNA, one strand shown
# Sample: in vitro
# Concentration: 940 nM top
# Notes: 60-bp whole probe
# Added: salmon DNA 0.4 mg/ml
# Relative to: random background probes
# Reading: higher = stronger binding
# Constant ends, left off below: GCCTAGCAC … GTCTTGATTCGCTTGACGCTGCTG
Oligonucleotide,fitted relative affinity [z-score]
GACGTTCTCAGTCTCGAGACGTGCTAG,1.89
GACGGTTTCGGACTGAGGACGTGCTAG,6.04
AAGGTAGCACTTCACAGCAAGTGCTAG,-0.0348
GACGATCTCAGTATCCAGACGTGCTAG,0.269
TTAGGACAGGGTCTCGGTTAGTGCTAG,0.436
TCATTGGTTGAACATGAACTGTGCTAG,0.0418
TTAGGTATCGACCCTGGGTTAGTGCTA,4.32
TTAGATATCAAACTGGATTAGTGCTAG,-0.298
TTAGAACTGAGTGTCGATTAGTGCTAG,-0.327
TTAGATCTTAGTTTCGATTAGTGCTAG,8.58
TTAGGTCTCCAACTGCTTTAGTGCTAG,-0.281
TTAGTACTGAGTCTCGATTAGTGCTAG,2.55
TTAGGTATCCTATTCCTTTAGTGCTAG,-0.0851
GACGATATCAGTCGCGAGACGTGCTAG,-0.183
TTAGGTAACGGTATCGGTTAGTGCTAG,4.35
TCACATATGCTTTTTAGACTGTGCTAG,0.337
GAATGATTACATATATGTTGGTGCTAG,0.0023
TCATCTACAGGGTTTCACACTGTGCTA,0.705
GACGGTTTGCTTTCCCTGACGTGCTAG,0.51
CACGAACTGGGGTATCGAGACGTGCTA,0.923
TTAGATATCGGGTATCGTTTAGTGCTA,1.68
TTAGTTTTCAGACTGGATTAGTGCTAG,0.386
TTAGGACTGCTAATCCTTTAGTGCTAG,-0.55
TTCACTCTCTGCTTGTATCTGTGCTAG,2.39

# Study 3
# Target: RNA binding protein fox-1 homolog 2, RRM domain, GST-SBP tag (RBFOX2, Homo sapiens, UniProt O43251-10, residues 100-194)
# Method: RNA Bind-n-Seq
# Molecule type: RNA
# Sample: in vitro
# Concentration: 365 nM
# Notes: natural RNA segment, single round, ends assumed
# Relative to: no-protein control
# Reading: higher = stronger binding
# Constant ends, left off below: GGGAGUUCUACAGUCCGACGAUC … UGGAAUUCUCGGGUGCCAA
# Target sequence (chain): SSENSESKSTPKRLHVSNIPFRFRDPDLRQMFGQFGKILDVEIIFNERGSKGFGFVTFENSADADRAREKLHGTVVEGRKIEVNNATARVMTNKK
Oligonucleotide,RBNS enrichment (R)
UAAUAUGGCGCUCCUGAUCUAUCUUACUCAAGUGCCCUCCCAUAUGUAUACCCCAACAUCUUUUCCAUCUUAAUCCAGCAUCGGGCCAUUCUCAAUCCCUGGUAAUCACC,1.22
AUUCAAGGUCACCAGGUACAGUUGUACAGGUUGUACACUGCAGGAGAGUGCCUGGCAAAAAGAUCAAAUGGGGCUGGGACUUCUCAUUGGCCAACCUGCCUUUCCCCAGA,0.498
CAUCAUUUGGGGUCGUAUGUUUUAAAGAGUAAAGGAGACGGUGAAGGGAUGUCAGCUAGAGUGUAGAGCCAGGGAGAGACAGCCAGGGAUUCUCGCCUAGCUGAACCAAG,0.844
AUAUCUCUUUCACUUCCUCCCCAGCUGCCAAAUGGGGAUAAAUAAUCUUACCUACCUCCUGGGGGGGGGGGAGUUCUGAGAACGAAGUCAUUCUUAGUGUUCAGGUGCUA,0.282
AUUAGUGGGGGACUGAGUUCAGGUUACCAGAACCAGUACCUCAGUAUUCUUUUUCAACAUGUAGGGCAAGAGGAUGAAGGAAGGGGCUAUCCUGGGACCUCCCCAGCCCA,0.29
UAUGCUGGAUAUCCAGGUUCUCGCCAGGCCCCGAUACAUGAAUAACAAACCCAAGAAACGCAUCCCCAUUGUGUGAUGUGUUCAGAUGCAUCUGGCACCAAUUAGGUAUU,0.969
AGCCAUGCUGUUGUGAGAUUUUUAGCUGCUGGAAGGCUAGGUAAUCACUGGGUAGUAUCACACAGGUGUGUCUGGGUUGAGAUGUUACUCCUCUGAAUGAAUAGGAGGAU,2.96
UACACCUGUGUGCUUUUCUAGAAAAAGCUGCUAAUGGCUGCAACACUAAUCAUGAACACGUUUUUGCCAGUUUCAAUCAAGUCAGAGGCAUUUAAUAAAAUUAUCUACAC,0.466
AAGGAGGGCUUCCCCUCUCUGCUGCGAGAGACUGGUCUGUGUGAAAUCCACUUCUGGGACAGGCAGUACUGUCUGCAGCGAUACCCCCAAUAAACGGAACUUUUUAACCC,0.309
AGAUGGUAACGAUUCCGAUGAGUUCAUUGAGCUGAGCAACGGACCCUGGGAAGACAUGAAUGUGCAGACCAUUGCAGAGCUUUUGAUUUCAUCUAGGUUCUGAAUUACAG,0.793
GGCCAUUUUUAAAACUUAAAAACUCAACACCUCACAGAUUAUAAUAGAAAAAGAAAUGGCCUCAGUUUGAUCUCGUUCAGAAUGACCCAGAUUGUUUCUGCUUUGGGUGC,0.674
AGAGAGUGUUUGUAGUUCAUGGUUUUUCCCUACCUGCCCGGUUCCUUUCCUGAGGACCCGGCAGAAAUGCAGAACCAUCCAUGGACUGUGAUUCUGAGGCUGCUGAGACU,0.268

# Study 4
# Target: Sal-like protein 4, full length isoform B (SALL4, Homo sapiens, UniProt Q9UJQ4-2, residues 1-616)
# Method: universal PBM
# Molecule type: double-stranded DNA, one strand shown
# Sample: in vitro
# Concentration: not given
# Notes: 8-mer, flanks averaged, mean of replicates
# Reading: higher = stronger binding
Oligonucleotide,E-score
AGTTCACC,-0.0503
AGATTCCC,-0.0895
AGTGAGAT,0.0123
GGCCTCCC,-0.344
GAATCCGC,-0.319
ATGTTAGG,0.168
CTGATGCC,-0.06
CAACGCTC,-0.0981
CCTCATAA,0.248
ATGACATA,0.3
TCCCGGCA,-0.308
ACTAAGTC,0.041
AAGAAAGC,-0.166
ATCTGAAG,0.0686
AACCATTG,0.12
CAGAGCTG,-0.281
AACCACCT,0.0387
AGGGTTCG,-0.206
AACAAATA,0.309
AGTAAAAA,0.356
CAAATTCA,0.108
AATAGCTC,0.027
AAATCGTG,0.197
CGGTACAG,-0.164

# Further values, each from its own experiment
Molecule,target,assay,system,setting,how to read,endpoint,value
"PhoQ, residues 284 288 289 292 302 303 TGYLSA","PhoP, residues 12 14 15 18 19 LHSVW (Escherichia coli, UniProt P23836)","Sort-seq, item: YFP reporter",E. coli,"PhoQ-PhoP variant library, added: 10 µM Mg2+","relative to: high Mg2+ state, higher = stronger signaling",fold induction,4.18
